Measurements of several laboratories.
Lines come from different studies, so protocols differ.
MALT1: MALT1 (Homo sapiens, UniProt Q9UDY8)
Sequence of UniProt Q9UDY8 (whole entry, looked up): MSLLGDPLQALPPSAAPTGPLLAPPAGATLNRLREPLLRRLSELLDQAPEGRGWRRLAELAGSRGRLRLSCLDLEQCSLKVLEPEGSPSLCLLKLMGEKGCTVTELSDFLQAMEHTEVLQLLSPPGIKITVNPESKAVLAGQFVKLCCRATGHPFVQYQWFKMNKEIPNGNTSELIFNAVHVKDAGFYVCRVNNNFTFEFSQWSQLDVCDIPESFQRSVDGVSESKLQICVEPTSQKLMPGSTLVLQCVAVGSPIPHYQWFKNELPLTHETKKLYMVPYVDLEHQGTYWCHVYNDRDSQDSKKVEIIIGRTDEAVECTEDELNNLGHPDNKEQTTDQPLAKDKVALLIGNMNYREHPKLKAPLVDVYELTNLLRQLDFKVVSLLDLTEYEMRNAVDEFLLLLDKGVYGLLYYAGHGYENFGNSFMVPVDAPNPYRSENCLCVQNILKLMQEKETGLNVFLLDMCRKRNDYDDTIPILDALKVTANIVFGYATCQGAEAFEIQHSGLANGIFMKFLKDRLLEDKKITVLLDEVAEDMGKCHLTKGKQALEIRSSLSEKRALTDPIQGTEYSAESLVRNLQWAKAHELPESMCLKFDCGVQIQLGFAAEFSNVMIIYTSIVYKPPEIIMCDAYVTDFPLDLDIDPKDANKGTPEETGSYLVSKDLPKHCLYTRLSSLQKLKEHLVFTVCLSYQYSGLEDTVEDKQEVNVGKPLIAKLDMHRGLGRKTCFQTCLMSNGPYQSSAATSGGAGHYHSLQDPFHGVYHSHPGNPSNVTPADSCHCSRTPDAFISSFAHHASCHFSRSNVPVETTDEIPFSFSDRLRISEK
IL18BP: IL18BP (Homo sapiens, UniProt O95998)
FCGR1A: FCGR1A (Homo sapiens, UniProt P12314)
Sequence of UniProt P12314 (whole entry, looked up): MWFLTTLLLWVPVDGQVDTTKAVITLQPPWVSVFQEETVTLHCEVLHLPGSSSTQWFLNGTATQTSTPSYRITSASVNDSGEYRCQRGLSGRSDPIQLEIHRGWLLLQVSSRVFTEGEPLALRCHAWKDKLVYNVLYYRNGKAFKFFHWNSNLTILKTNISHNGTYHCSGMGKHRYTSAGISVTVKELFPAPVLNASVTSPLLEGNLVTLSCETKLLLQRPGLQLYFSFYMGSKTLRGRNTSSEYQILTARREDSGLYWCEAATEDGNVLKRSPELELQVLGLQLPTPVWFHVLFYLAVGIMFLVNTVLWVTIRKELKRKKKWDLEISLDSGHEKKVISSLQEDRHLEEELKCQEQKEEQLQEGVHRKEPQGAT
B1: designed binder (Homo sapiens); chain MASAARLTMMWEEVTCPICLDPFVEPVSIECGHSFCQECISQVGKGGGSVCPVCRQRFLLKNLRPNRQLANMVNNLKEISQEAREGTQGERCAVHGERLHLFCEKDGKALCWVCAQSRKHRDHAMVPLEEAAQEYQEKLQVALGELRRKQELAEKLEVEIAIKRADWKKTVETQKSRIHAEFVQQKNFLVEEEQRQLQELEKDEREQLRILGEKEAKLAQQSQALQELISELDRRCHSSALELLQEVIIVLERSESWNLKDLDITSPELRSVCHVPGLKKMLRTCAGGGGSGGGGSGGGGSRLDAPSQIEVKDVTDTTALITWHRYSTHISWFELTYGIKDVPGDRTTISLWPYRRSYSIGNLKPDTEYEVSLISSGYSYSSNPAKITFKTGL
B2: IL18 37-193 S46C/C74S/C104S/C112S/C163S/V189C (Homo sapiens, UniProt Q14116); chain YFGKLESKLCVIRNLNDQVLFIDQGNRPLFEDMTDSDSRDNAPRTIFIISMYKDSQPRGMAVTISVKSEKISTLSSENKIISFKEMNPPDNIKDTKSDIIFFQRSVPGHDNKMQFESSSYEGYFLASEKERDLFKLILKKEDELGDRSIMFTCQNED
B3: designed binder (Homo sapiens); chain MASAARLTMMWEEVTCPICLDPFVEPVSIECGHSFCQECISQVGKGGGSVCPVCRQRFLLKNLRPNRQLANMVNNLKEISQEAREGTQGERCAVHGERLHLFCEKDGKALCWVCAQSRKHRDHAMVPLEEAAQEYQEKLQVALGELRRKQELAEKLEVEIAIKRADWKKTVETQKSRIHAEFVQQKNFLVEEEQRQLQELEKDEREQLRILGEKEAKLAQQSQALQELISELDRRCHSSALELLQEVIIVLERSESWNLKDLDITSPELRSVCHVPGLKKMLRTCAGGGGSGGGGSGGGGSRLDAPSTIAVYRVSYTYAIIYWYSPLAEIDGFELTYGIKDVPGDRTTIKLTEDDGHYVIRHLKPDTEYEVSLISRRGDMSSNPAKITFKTGL
B4: EFR3A 721-791 (Homo sapiens, UniProt Q14156); chain SNTEEITFEALKKAIDTSGMEEQEKEKRRLVIEKFQKAPFEEIAAQCESKANLLHDRLAQILELTIRPPPS
B5: IL18 37-193 C74S/C104S/C112S/A162C/C163S/I185C (Homo sapiens, UniProt Q14116); chain YFGKLESKLSVIRNLNDQVLFIDQGNRPLFEDMTDSDSRDNAPRTIFIISMYKDSQPRGMAVTISVKSEKISTLSSENKIISFKEMNPPDNIKDTKSDIIFFQRSVPGHDNKMQFESSSYEGYFLCSEKERDLFKLILKKEDELGDRSCMFTVQNED
B6: UPF3B (Homo sapiens, UniProt Q9BZI7); sequence looked up; chain MKEEKEHRPKEKRVTLLTPAGATGSGGGTSGDSSKGEDKQDRNKEKKEALSKVVIRRLPPTLTKEQLQEHLQPMPEHDYFEFFSNDTSLYPHMYARAYINFKNQEDIILFRDRFDGYVFLDNKGQEYPAIVEFAPFQKAAKKKTKKRDTKVGTIDDDPEYRKFLESYATDNEKMTSTPETLLEEIEAKNRELIAKKTTPLLSFLKNKQRMREEKREERRRREIERKRQREEERRKWKEEEKRKRKDIEKLKKIDRIPERDKLKDEPKIKVHRFLLQAVNQKNLLKKPEKGDEKELDKREKAKKLDKENLSDERASGQSCTLPKRSDSELKDEKPKRPEDESGRDYREREREYERDQERILRERERLKRQEEERRRQKERYEKEKTFKRKEEEMKKEKDTLRDKGKKAESTESIGSSEKTEKKEEVVKRDRIRNKDRPAMQLYQPGARSRNRLCPPDDSTKSGDSAAERKQESGISHRKEGGEE
B7: protein disulfide-isomerase A6, human; sequence looked up; chain LYSSSDDVIELTPSNFNREVIQSDSLWLVEFYAPWCGHCQRLTPEWKKAATALKDVVKVGAVDADKHHSLGGQYGVQGFPTIKIFGSNKNRPEDYQGGRTGEAIVDAALSALRQLVKDRLGGRSGGYSSGKQGRSDSSSKKDVIELTDDSFDKNVLDSEDVWMVEFYAPWCGHCKNLEPEWAAAASEVKEQTKGKVKLAAVDATVNQVLASRYGIRGFPTIKIFQKGESPVDYDGGRTRSDIVSRALDLFSDNAPPPELLEIINEDIAKRTCEEHQLCVVAVLPHILDTGAAGRNSYLEVLLKLADKYKKKMWGWLWTEAGAQSELETALGIGGFGYPAMAAINARKMKFALLKGSFSEQGINEFLRELSFGRGSTAPVGGGAFPTIVEREPWDGRDGELPVEDDIDLSDVELDDLGKDEL
B8: EFR3B 716-787 (Homo sapiens, UniProt Q9Y2G0); chain VPAEEITYETLKKAIVDSVAVEEQERERRRQVVEKFQKAPFEEIAAHCGARASLLQSKLNQIFEITIRPPPS
B9: IL18 37-193 N50C/C74S/C104S/L174C (Homo sapiens, UniProt Q14116); chain YFGKLESKLSVIRCLNDQVLFIDQGNRPLFEDMTDSDSRDNAPRTIFIISMYKDSQPRGMAVTISVKSEKISTLSCENKIISFKEMNPPDNIKDTKSDIIFFQRSVPGHDNKMQFESSSYEGYFLACEKERDLFKLICKKEDELGDRSIMFTVQNED
B10: CDC48A 1-190 (Arabidopsis thaliana, UniProt P54609); chain MSTPAESSDSKSKKDFSTAILERKKSPNRLVVDEAINDDNSVVSLHPATMEKLQLFRGDTILIKGKKRKDTVCIALADETCEEPKIRMNKVVRSNLRVRLGDVISVHQCPDVKYGKRVHILPVDDTVEGVTGNLFDAYLKPYFLEAYRPVRKGDLFLVRGGMRSVEFKVIETDPAEYCVVAPDTEIFCEG
B11: UPF2 761-1054 (Homo sapiens, UniProt Q9HAU5); sequence looked up; chain EKTVKKKRPPLQEYVRKLLYKDLSKVTTEKVLRQMRKLPWQDQEVKDYVICCMINIWNVKYNSIHCVANLLAGLVLYQEDVGIHVVDGVLEDIRLGMEVNQPKFNQRRISSAKFLGELYNYRMVESAVIFRTLYSFTSFGVNPDGSPSSLDPPEHLFRIRLVCTILDTCGQYFDRGSSKRKLDCFLVYFQRYVWWKKSLEVWTKDHPFPIDIDYMISDTLELLRPKIKLCNSLEESIRQVQDLEREFLIKLGLVNDKDSKDSMTEGENLEEDEEEEEGGAETEEQSGNESEVNE
B12: peroxiredoxin-2 (human); sequence looked up; chain ASGNARIGKPAPDFKATAVVDGAFKEVKLSDYKGKYVVLFFYPLDFTFVCPTEIIAFSNRAEDFRKLGCEVLGVSVDSQFTHLAWINTPRKEGGLGPLNIPLLADVTRRLSEDYGVLKTDEGIAYRGLFIIDGKGVLRQITVNDLPVGRSVDEALRLVQAFQYTDEHGEVCPAGWKPGSDTIKPNVDDSKEYFSKHN
B13: IL18 37-193 C74S/S101C/C104S/T109C/C112S/C163S (Homo sapiens, UniProt Q14116); chain YFGKLESKLSVIRNLNDQVLFIDQGNRPLFEDMTDSDSRDNAPRTIFIISMYKDSQPRGMAVTICVKSEKISCLSSENKIISFKEMNPPDNIKDTKSDIIFFQRSVPGHDNKMQFESSSYEGYFLASEKERDLFKLILKKEDELGDRSIMFTVQNED
B14: IL18 37-193 L45C/C74S/C104S/C112S/C163S/E192C (Homo sapiens, UniProt Q14116); chain YFGKLESKCSVIRNLNDQVLFIDQGNRPLFEDMTDSDSRDNAPRTIFIISMYKDSQPRGMAVTISVKSEKISTLSSENKIISFKEMNPPDNIKDTKSDIIFFQRSVPGHDNKMQFESSSYEGYFLASEKERDLFKLILKKEDELGDRSIMFTVQNCD
B15: TNFSF4 51-183 (Homo sapiens, UniProt P23510); sequence looked up; chain QVSHRYPRIQSIKVQFTEYKKEKGFILTSQKEDEIMKVQNNSVIINCDGFYLISLKGYFSQEVNISLHYQKDEEPLFQLKKVRSVNSLMVASLTYKDKVYLNVTTDNTSLDDFHVNGGELILIHQNPGEFCVL
B16: VHH nanobody 6B1 (Lama glama); chain QVQLQESGGGLVQPGGSLRLSCAASGSIFSTDAMGWYRQFPGKNRKLVARISSGDYGDYTNYADSVKGRFTISRDNAKNTVYLQMNSLKPEDTAVYYCNSVPPAPGEYGRDYWGAGTQVTVSS
Sequence of UniProt P11362 (whole entry, looked up): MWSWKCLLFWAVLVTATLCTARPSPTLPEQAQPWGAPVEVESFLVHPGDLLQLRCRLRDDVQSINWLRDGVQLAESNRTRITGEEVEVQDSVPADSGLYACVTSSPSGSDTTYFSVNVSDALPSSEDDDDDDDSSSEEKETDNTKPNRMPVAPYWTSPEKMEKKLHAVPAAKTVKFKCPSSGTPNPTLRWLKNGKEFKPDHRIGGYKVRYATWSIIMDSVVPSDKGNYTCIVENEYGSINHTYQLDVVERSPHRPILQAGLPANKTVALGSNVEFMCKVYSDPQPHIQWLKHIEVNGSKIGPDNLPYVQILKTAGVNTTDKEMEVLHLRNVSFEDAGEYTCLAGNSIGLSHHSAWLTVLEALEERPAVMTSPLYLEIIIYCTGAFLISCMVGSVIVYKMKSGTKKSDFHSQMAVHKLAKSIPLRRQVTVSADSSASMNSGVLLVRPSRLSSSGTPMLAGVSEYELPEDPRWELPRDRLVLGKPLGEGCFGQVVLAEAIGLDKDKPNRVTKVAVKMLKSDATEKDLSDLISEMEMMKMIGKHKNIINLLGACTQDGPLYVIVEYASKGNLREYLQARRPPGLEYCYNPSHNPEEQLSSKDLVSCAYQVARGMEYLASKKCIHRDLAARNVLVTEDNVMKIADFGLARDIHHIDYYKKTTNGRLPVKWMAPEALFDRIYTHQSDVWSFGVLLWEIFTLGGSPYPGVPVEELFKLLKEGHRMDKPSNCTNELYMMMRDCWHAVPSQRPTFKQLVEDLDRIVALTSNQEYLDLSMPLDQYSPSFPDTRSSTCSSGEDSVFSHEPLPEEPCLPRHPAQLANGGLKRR
Sequence of UniProt Q4V3D3 (whole entry, looked up): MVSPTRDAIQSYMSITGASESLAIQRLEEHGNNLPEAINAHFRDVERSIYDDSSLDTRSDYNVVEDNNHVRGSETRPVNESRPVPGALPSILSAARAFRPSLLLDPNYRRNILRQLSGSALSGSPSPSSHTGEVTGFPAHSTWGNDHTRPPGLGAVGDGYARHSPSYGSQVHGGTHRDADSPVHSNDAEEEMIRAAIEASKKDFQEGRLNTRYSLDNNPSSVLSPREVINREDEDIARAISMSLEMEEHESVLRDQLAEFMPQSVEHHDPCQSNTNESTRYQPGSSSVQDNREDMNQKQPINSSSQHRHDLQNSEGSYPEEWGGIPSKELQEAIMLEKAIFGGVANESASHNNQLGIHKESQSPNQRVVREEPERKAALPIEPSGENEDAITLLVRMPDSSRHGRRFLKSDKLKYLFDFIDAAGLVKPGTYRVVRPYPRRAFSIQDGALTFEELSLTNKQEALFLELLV
Sequence of UniProt P52803 (whole entry, looked up): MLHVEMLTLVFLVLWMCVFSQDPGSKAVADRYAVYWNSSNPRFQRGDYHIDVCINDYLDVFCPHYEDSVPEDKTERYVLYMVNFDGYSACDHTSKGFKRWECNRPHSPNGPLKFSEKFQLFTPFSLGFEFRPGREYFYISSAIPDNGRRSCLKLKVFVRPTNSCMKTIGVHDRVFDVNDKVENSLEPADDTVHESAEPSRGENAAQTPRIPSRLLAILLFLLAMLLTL

EGLN1 fragment
koff (HIF1A CODD peptide 556-574, C-terminal amide (Homo sapiens); BLI): 0.037 s⁻¹

B1 (designed binder)
koff (MALT1; BLI; designed binder): 0.0515 s⁻¹

YIKTPLGTFPNRHGC (engineered peptide)
koff (VPS35/VPS26A/VPS29 retromer complex (Homo sapiens); SPR; peptide): 0.002 s⁻¹

YLLFWRDELILLCGSER (macrocyclic peptide; Tyr1-Cys13 thioether, C-terminal amide)
koff (MCL1 172-322 (Homo sapiens); SPR; peptide): 0.0278 s⁻¹

B2
koff (IL18BP; SPR): 4.3e-05 s⁻¹

B3 (designed binder)
koff (MALT1; BLI; designed binder): 0.0693 s⁻¹

B4 (EFR3A 721-791)
koff (TTC7A/FAM126B 1-308; BLI): 0.000439 s⁻¹

Trastuzumab IgG1, CSCS double cysteine mutant (Homo sapiens)
koff (FCGR1A; SPR): 0.00055 s⁻¹

B4 (EFR3A 721-791)
koff (TTC7A/FAM126B FAM126B 1-308; BLI): 0.000439 s⁻¹

B5
koff (IL18BP; SPR): 1.9e-05 s⁻¹

B6 (UPF3B)
koff (UPF2 (Homo sapiens, UniProt Q9HAU5); BLI): 0.000583 s⁻¹

B7
log2 fold change (CYB5R4 knockout human cells; PP6 interaction, 3xFLAG-PP6C IP-MS; concentration not given; reference: CYB5R4 KO over parental): -0.18

B8 (EFR3B 716-787)
koff (TTC7B/FAM126B FAM126B 1-308; BLI): 0.000205 s⁻¹

B8 (EFR3B 716-787)
koff (TTC7B/FAM126B 1-308; BLI): 0.000205 s⁻¹

MBL-A mature, hydroxylysine, hydroxyproline in collagen (Rattus norvegicus, UniProt P19999)
koff (Masp2 S613A (Rattus norvegicus); SPR; single-site model): 0.00062 s⁻¹

colistin
MIC (Acinetobacter baumannii; broth microdilution; clinical isolate RKI-No_271/16): ≤ 0.5 µg/mL

B9
koff (IL18BP; SPR): 4.8e-05 s⁻¹

B10 (CDC48A 1-190)
koff (PUX9 (Arabidopsis thaliana, UniProt Q4V3D3); BLI; 25 °C): 0.0026 s⁻¹

B11 (UPF2 761-1054)
koff (UPF3B (Homo sapiens, UniProt Q9BZI7); BLI): 0.00251 s⁻¹

FHDAWPNLSKSS (designed peptide)
koff (FGFR1 22-376 (Homo sapiens, UniProt P11362); SPR; peptide): 0.00556 s⁻¹

B12 (peroxiredoxin-2)
log2 fold change (CYB5R4 knockout human cells; PP6 interaction, 3xFLAG-PP6C IP-MS; concentration not given; reference: CYB5R4 KO over parental): 0.0435

Trastuzumab IgG1 (Homo sapiens)
koff (FCGR1A; SPR): 0.00058 s⁻¹

B13
koff (IL18BP; SPR): 2.4e-05 s⁻¹

EPHA2 fragment, auto-phosphorylated (Homo sapiens)
koff (EFNA5 (Homo sapiens, UniProt P52803); BLI; apparent): 0.00883 s⁻¹

B14
koff (IL18BP; SPR): 3.1e-05 s⁻¹

B15 (TNFSF4 51-183)
koff (TNFRSF4 29-170 W86A (Homo sapiens, UniProt P43489); SPR): 0.039 s⁻¹

PF4/KKO tetramer
koff (GP6 monomer (UniProt Q9HCN6); SPR): 0.0016 s⁻¹

B16 (VHH nanobody 6B1)
koff (FXN 90-210 H177C (Homo sapiens, UniProt Q16595); BLI; VHH): 0.000608 s⁻¹

A few entries again:
colistin
MIC (Acinetobacter baumannii; broth microdilution; clinical isolate RKI-No_271/16): ≤ 0.5 µg/mL

B9
koff (IL18BP; SPR): 4.8e-05 s⁻¹

B10 (CDC48A 1-190)
koff (PUX9 (Arabidopsis thaliana, UniProt Q4V3D3); BLI; 25 °C): 0.0026 s⁻¹
